Assay results pooled from the literature.
Numbered parts are unrelated; each lists some results of a single study.

Series 1 — technique: protein-binding microarray; form: double-stranded DNA, one strand shown; sample: in vitro; concentration: 250 nM; setting: 60-bp whole probe; with: salmon DNA 0.4 mg/ml; baseline: random background probes; reading: higher = stronger binding; constant ends, left off below: GCCTAGCAC … GTCTTGATTCGCTTGACGCTGCTG
Target: Interferon regulatory factor 5, full length, phosphomimetic (IRF5, Homo sapiens, UniProt Q13568-2, residues 1-514, K96S/S451D/S453D/S456D/S462D)
Oligonucleotide | log fluorescence [z-score]
TTAGATATCGAGTTTCGATTAGTGCTA | 9.16
GACGAACTGGGTACTGGAGACGTGCTA | -0.662
TTAGGGTTCGACACTGGGTTAGTGCTA | 0.0797
TTAGTTATCGGGTATCGATTAGTGCTA | 6.59
GACAGTTTCGGTTTCGGGACGTGCTAG | 11.5

Series 2 — technique: protein-binding microarray; form: double-stranded DNA, one strand shown; sample: in vitro; concentration: not given; reading: higher = stronger binding
Target: Transcriptional repressor CTCF (CTCF, Homo sapiens, UniProt P49711, residues 1-727, full length assumed)
Sequence of UniProt P49711 (whole entry, looked up): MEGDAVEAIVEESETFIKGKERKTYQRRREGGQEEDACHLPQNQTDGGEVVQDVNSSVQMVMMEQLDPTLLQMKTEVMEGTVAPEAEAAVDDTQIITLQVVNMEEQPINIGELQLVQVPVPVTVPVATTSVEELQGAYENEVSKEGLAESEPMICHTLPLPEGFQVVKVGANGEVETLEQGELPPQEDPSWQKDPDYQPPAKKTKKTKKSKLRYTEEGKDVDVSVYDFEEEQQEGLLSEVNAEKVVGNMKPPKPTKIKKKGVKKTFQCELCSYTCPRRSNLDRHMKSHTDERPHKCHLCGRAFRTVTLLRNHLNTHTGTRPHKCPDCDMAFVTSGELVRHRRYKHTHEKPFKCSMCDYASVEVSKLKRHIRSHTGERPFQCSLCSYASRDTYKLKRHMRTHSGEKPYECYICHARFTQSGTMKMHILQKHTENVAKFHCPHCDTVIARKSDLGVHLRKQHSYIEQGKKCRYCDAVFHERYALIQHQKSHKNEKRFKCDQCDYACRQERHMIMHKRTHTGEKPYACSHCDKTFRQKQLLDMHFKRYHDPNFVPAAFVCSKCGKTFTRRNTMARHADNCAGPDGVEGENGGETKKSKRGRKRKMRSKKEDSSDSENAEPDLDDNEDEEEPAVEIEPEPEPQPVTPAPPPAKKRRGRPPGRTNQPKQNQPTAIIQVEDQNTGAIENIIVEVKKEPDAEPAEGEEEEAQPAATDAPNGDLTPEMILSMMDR
Setting: k-mer, scored over probes, only values ≥0.25
Oligonucleotide | E-score
AAATAAGA | 0.263
GTACAAAA | 0.296
GAAACATA | 0.304
TATTTCGA | 0.295
GCATAATA | 0.333
CAAAAAAA | 0.288

Series 3 — technique: protein binding microarray; form: double-stranded DNA, one strand shown; sample: in vitro; concentration: not given; baseline: not given; reading: higher = stronger binding
Target: Histone acetyltransferase KAT6A, winged helix 2, GST fusion (KAT6A, Homo sapiens, UniProt Q92794, residues 85-181)
Setting: 8-mer, flanks averaged, mean of 2 arrays, mostly near background
Residues (chain): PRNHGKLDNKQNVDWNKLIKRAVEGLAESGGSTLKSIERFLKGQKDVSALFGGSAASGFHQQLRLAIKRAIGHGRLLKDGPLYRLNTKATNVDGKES
Oligonucleotide | E-score
CGGTGCAG | 0.0847
ACTAGTTC | -0.151
CCGGACGA | 0.166
ATATATAC | 0.0365

Other studies, line by line
Molecule | target | test | system | conditions | how to read | measurement | value
PhoQ, residues 284 288 289 292 302 303 SLSVQF | PhoP, residues 12 14 15 18 19 NQCAL (Escherichia coli, UniProt P23836) | Sort-seq, measured: YFP reporter | E. coli | PhoQ-PhoP variant library, with: 10 µM Mg2+ | baseline: high Mg2+ state, higher = stronger signaling | fold induction | 14.8

For quick reference, copied from above (series 2):
Oligonucleotide | E-score
TATTTCGA | 0.295
